Results pooled from the literature.
Compare with care: the assays were run in different laboratories.
Chain of UniProt P62258 (whole entry, looked up): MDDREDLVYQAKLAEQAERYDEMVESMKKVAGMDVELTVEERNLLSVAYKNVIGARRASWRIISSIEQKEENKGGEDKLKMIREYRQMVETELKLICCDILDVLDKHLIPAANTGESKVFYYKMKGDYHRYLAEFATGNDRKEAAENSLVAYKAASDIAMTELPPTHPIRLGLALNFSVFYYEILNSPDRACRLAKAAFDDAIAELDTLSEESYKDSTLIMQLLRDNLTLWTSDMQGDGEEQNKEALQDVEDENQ

SMILES	tested on	test	test system	setting	how to read	quantity	value
CC1NC(=O)C(C(=O)NC(C(=O)NC2C(=O)N3C2SC(C)(C)C3C(=O)O)c2ccccc2)=C1O (stereo not drawn)	Escherichia coli	broth microdilution	ATCC 35218, low-level TEM-1	no clavulanic acid		MIC	> 200 µg/mL
C[C@H]1CN(c2n[nH]c3nc(N[C@H]4CC[C@H](NS(=O)(=O)CCC(F)(F)F)CC4)ncc23)CCO1	14-3-3 protein epsilon (Homo sapiens, UniProt P62258)	Kinobeads competition, item: YWHAE		0.8 µM, unit not given	reference: vehicle	remaining binding	1.19
C[C@H](NC(=O)[C@H](CCCNC(=N)N)NC(=O)[C@H](Cc1c[nH]c2ccccc12)NC(=O)[C@H](CCCNC(=N)N)NC(=O)[C@H](Cc1c[nH]c2ccccc12)NC(=O)[C@H](Cc1c[nH]c2ccccc12)NC(=O)[C@H](Cc1c[nH]c2ccccc12)NC(=O)[C@H](CCCNC(=N)N)NC(=O)[C@H](Cc1c[nH]c2ccccc12)NC(=O)[C@H](CCCNC(=N)N)NC(=O)CN)C(N)=O	Candida albicans	broth microdilution	58288, RPMI 1640-MOPS	48 h, 30 °C		MIC	8 µM
CC[C@H](C)[C@@H]1NC(=O)[C@@H]2CCCN2C(=O)[C@H](CC(C)C)NC(=O)[C@H](CC(C)C)NC(=O)CNC(=O)[C@@H](NC(=O)[C@@H](NC(=O)[C@H](CC(=O)O)NC(=O)CNC(=O)[C@@H](NC(=O)[C@H](C)NC(=O)CNC(=O)[C@H](CCCCN)NC(=O)[C@H](CC(C)C)NC(=O)[C@H](CC(C)C)NC(=O)[C@H](CCCCN)NC(=O)CNC(=O)[C@@H](NC(=O)[C@@H](N)CC(C)C)C(C)C)C(C)C)C(C)C)CSSC[C@@H](C(=O)O)NC1=O		RNA-seq, item: Rbm38	mouse, traumatic brain injury model, frontal cortex and hippocampus	dose not given	reference: TBI alone	log2 fold change	-1.53
N=C(N)NCCC[C@H](NC(=O)[C@H](Cc1c[nH]c2ccccc12)NC(=O)[C@H](CCCNC(=N)N)NC(=O)[C@H](Cc1c[nH]c2ccccc12)NC(=O)[C@H](Cc1c[nH]c2ccccc12)NC(=O)[C@H](Cc1c[nH]c2ccccc12)NC(=O)[C@H](CCCNC(=N)N)NC(=O)[C@H](Cc1c[nH]c2ccccc12)NC(=O)[C@@H](N)CCCNC(=N)N)C(=O)N[C@@H](Cc1ccccc1)C(N)=O	Candida albicans	broth microdilution	CGMCC 2.209, RPMI 1640-MOPS	48 h, 30 °C, together with: KCl 4.5 mM		MIC	16 µM
CCN1CCN(C(=O)N[C@@H](C(=O)N[C@@H]2C(=O)N3[C@@H]2SC(C)(C)[C@@H]3C(=O)O)c2ccccc2)C(=O)C1=O	Escherichia coli	broth microdilution	ATCC 35218, low-level TEM-1	together with: clavulanic acid 6 µg/mL		MIC	100 µg/mL
CC[C@H](C)[C@H](N)C(=O)N[C@@H](CCCNC(=N)N)C(=O)N[C@H](C(=O)N[C@@H](Cc1c[nH]c2ccccc12)C(=O)N[C@@H](Cc1ccccc1)C(=O)N[C@H](C(=O)N[C@@H](CCCCN)C(=O)N[C@H](C(=O)N[C@@H](CCCNC(=N)N)C(=O)N[C@@H](CCCCN)C(=O)N[C@@H](Cc1c[nH]c2ccccc12)C(=O)N[C@@H](CCCCN)C(=O)N[C@@H](C)C(=O)N[C@H](C(=O)N[C@@H](Cc1ccc(O)cc1)C(=O)N[C@@H](Cc1c[nH]cn1)C(=O)N[C@H](C(N)=O)[C@@H](C)O)[C@@H](C)CC)C(C)C)[C@@H](C)CC)C(C)C	Enterobacter sp.	broth dilution	KCTC 2625			MIC	50 µM
N=C(N)NCCC[C@H](NC(=O)CN)C(=O)N[C@@H](Cc1c[nH]c2ccccc12)C(=O)N[C@@H](CCCNC(=N)N)C(=O)N[C@@H](Cc1c[nH]c2ccccc12)C(=O)N[C@@H](Cc1c[nH]c2ccccc12)C(=O)N[C@@H](Cc1c[nH]c2ccccc12)C(=O)N[C@@H](CCCNC(=N)N)C(=O)N[C@@H](Cc1c[nH]c2ccccc12)C(=O)N[C@@H](CCCNC(=N)N)C(=O)N[C@@H](Cc1c[nH]c2ccccc12)C(N)=O	Candida albicans	broth microdilution	CGMCC 2.209, RPMI 1640-MOPS	48 h, 30 °C, together with: CaCl2 2 mM		MIC	8 µM
CC(C)C[C@H](NC(=O)[C@H](C)NC(=O)[C@@H](NC(=O)[C@H](CCCNC(=N)N)NC(=O)[C@H](CC(C)C)NC(=O)[C@H](Cc1c[nH]c2ccccc12)NC(=O)[C@@H]1CCCN1C(=O)[C@@H](N)CCCCN)C(C)C)C(=O)N[C@@H](CS)C(=O)N1CCC[C@H]1C(=O)NCC(=O)O	Staphylococcus intermedius	broth microdilution	S			MIC	32 µM
CC[C@H](C)[C@H](N)C(=O)N[C@@H](CCCNC(=N)N)C(=O)N[C@H](C(=O)N[C@@H](Cc1c[nH]c2ccccc12)C(=O)N[C@@H](Cc1c[nH]c2ccccc12)C(=O)N[C@@H](CCCCN)C(=O)N[C@H](C(=O)N[C@H](C(=O)N[C@@H](CCCNC(=N)N)C(=O)N[C@@H](CCCCN)C(=O)N[C@@H](Cc1c[nH]c2ccccc12)C(=O)N[C@@H](CCCCN)C(=O)N[C@@H](C)C(=O)N[C@H](C(=O)N[C@@H](Cc1c[nH]c2ccccc12)C(=O)N[C@@H](Cc1c[nH]cn1)C(N)=O)[C@@H](C)CC)C(C)C)[C@@H](C)CC)C(C)C	Listeria monocytogenes	broth dilution	KCTC 13064			MIC	12.5 µM
CC(C)C[C@H](NC(=O)[C@H](CCCNC(=N)N)NC(=O)[C@H](Cc1c[nH]c2ccccc12)NC(=O)[C@H](CCCNC(=N)N)NC(=O)[C@H](Cc1c[nH]c2ccccc12)NC(=O)[C@H](Cc1c[nH]c2ccccc12)NC(=O)[C@H](Cc1c[nH]c2ccccc12)NC(=O)[C@H](CCCNC(=N)N)NC(=O)[C@H](Cc1c[nH]c2ccccc12)NC(=O)[C@H](CCCNC(=N)N)NC(=O)CN)C(N)=O	Candida albicans	broth microdilution	CGMCC 2.209, RPMI 1640-MOPS	48 h, 30 °C, together with: KCl 4.5 mM		MIC	32 µM
CCCCCCCCCC(=O)N[C@@H](Cc1c[nH]c2ccccc12)C(=O)N[C@H](CC(N)=O)C(=O)N[C@@H](CC(=O)O)C(=O)N[C@@H]1C(=O)NCC(=O)N[C@@H](CCCN)C(=O)N[C@@H](CC(=O)O)C(=O)N[C@H](C)C(=O)N[C@@H](CC(=O)O)C(=O)NCC(=O)N[C@H](CO)C(=O)N[C@@H]([C@H](C)CC(=O)O)C(=O)N[C@@H](CC(=O)c2ccccc2N)C(=O)O[C@@H]1C	Salmonella enterica serovar Typhimurium	broth dilution	SL1344			MIC	inactive
CC(C)C1NC(=O)C(C(=O)NC(C(=O)NC2C(=O)N3C2SC(C)(C)C3C(=O)O)c2ccccc2)=C1O (stereo not drawn)	Escherichia coli	broth microdilution	Keio mutant JW5086-3	18 h, ferrienterobactin permease gene		MIC	25 µg/mL
CC[C@H](C)[C@H](NC(=O)[C@H](CCCCN)NC(=O)[C@H](CCCCN)NC(=O)[C@H](Cc1ccccc1)NC(=O)[C@@H](NC(=O)[C@@H](NC(=O)[C@H](CCCNC(=N)N)NC(=O)[C@H](Cc1ccccc1)NC(=O)[C@@H](NC(=O)[C@H](CCCCN)NC(=O)[C@H](CCCCN)NC(=O)[C@@H](N)CCSC)[C@@H](C)CC)C(C)C)[C@@H](C)CC)C(=O)N[C@@H](CC(C)C)C(=O)N[C@@H](CCCCN)C(=O)N[C@@H](CCCNC(=N)N)C(=O)N[C@@H](CC(C)C)C(=O)N[C@H](C(=O)N[C@H](C(=O)O)C(C)C)[C@@H](C)CC	Staphylococcus aureus	broth microdilution	GU-1 MRSA	10% fetal bovine serum		MIC	8 µg/mL
C[C@@H](O)[C@H]1C(=O)N2C(C(=O)O)=C(SCCN=CN)C[C@H]12	Klebsiella pneumoniae		KPC-2 parental strain K1(4578)			MIC	64 µg/mL
CC(C)C[C@H](NC(=O)[C@H](CCCNC(=N)N)NC(=O)[C@H](Cc1c[nH]c2ccccc12)NC(=O)[C@H](CCCNC(=N)N)NC(=O)[C@H](Cc1c[nH]c2ccccc12)NC(=O)[C@H](Cc1c[nH]c2ccccc12)NC(=O)[C@H](Cc1c[nH]c2ccccc12)NC(=O)[C@H](CCCNC(=N)N)NC(=O)[C@H](Cc1c[nH]c2ccccc12)NC(=O)[C@@H](N)CCCNC(=N)N)C(N)=O	Candida albicans	broth microdilution	CGMCC 2.209, RPMI 1640-MOPS	48 h, 30 °C, together with: KCl 4.5 mM		MIC	8 µM
CC1(C)SC2C(NC(=O)C(NC(=O)C3=C(O)C(Cc4ccc([N+](=O)[O-])cc4)NC3=O)c3ccccc3)C(=O)N2C1C(=O)O (stereo not drawn)	Escherichia coli	broth microdilution	isolate IU 356 A, KPC-3, VIM-1, TEM	together with: clavulanic acid 6 µg/mL		MIC	> 200 µg/mL
CC(C)C[C@H](NC(=O)CNC(=O)CNC(=O)CNC(=O)[C@H](Cc1ccc(O)cc1)NC(=O)[C@H](CC(C)C)NC(=O)[C@@H](NC(=O)CNC(=O)[C@H](Cc1ccc(O)cc1)NC(=O)[C@H](CCCCN)NC(=O)[C@H](CC(N)=O)NC(=O)[C@@H](NC(=O)[C@H](CCCCN)NC(=O)[C@H](Cc1c[nH]c2ccccc12)NC(=O)CN)[C@@H](C)O)[C@@H](C)O)C(=O)N[C@@H](CCCCN)C(=O)N[C@@H](CCCCN)C(=O)N[C@@H](CC(C)C)C(=O)N[C@@H](CC(C)C)C(=O)N[C@@H](CC(C)C)C(=O)N[C@@H](CC(C)C)C(=O)N[C@@H](CC(C)C)C(=O)N[C@@H](CCCCN)C(=O)N[C@@H](CCCCN)C(=O)N[C@@H](CC(C)C)C(=O)NCC(=O)O	Staphylococcus aureus		USA300	together with: 4 µM FeCl3		MIC	32 µg/mL
CC1(C)SC2C(NC(=O)C(NC(=O)C3=C(O)CNC3=O)c3ccccc3)C(=O)N2C1C(=O)O (stereo not drawn)	Escherichia coli	broth microdilution	JW0790-2 fiu deletion mutant	ferric iron uptake gene		MIC	50 µg/mL
CC(C)C[C@H](NC(=O)[C@@H](NC(=O)[C@H](CCCNC(=N)N)NC(=O)[C@H](CCC(N)=O)NC(=O)[C@H](Cc1ccccc1)NC(=O)[C@H](Cc1ccc(O)cc1)NC(=O)[C@H](CC(N)=O)NC(=O)[C@H](Cc1c[nH]c2ccccc12)NC(=O)[C@@H](NC(=O)[C@H](CCCNC(=N)N)NC(=O)[C@H](CCCCN)NC(=O)[C@@H](N)Cc1ccccc1)C(C)C)C(C)C)C(=O)N[C@H](C(=O)N[C@@H](CCCCN)C(=O)N[C@@H](CCCCN)C(=O)N[C@@H](Cc1ccc(O)cc1)C(=O)N[C@@H](C)C(N)=O)C(C)C	Enterobacter sp.	broth dilution	KCTC 2625			MIC	> 100 µM
CN1CC(O)=C(C(=O)NC(C(=O)NC2C(=O)N3C2SC(C)(C)C3C(=O)O)c2ccccc2)C1=O (stereo not drawn)	Escherichia coli	broth microdilution	ATCC 35218, low-level TEM-1	no clavulanic acid		MIC	> 200 µg/mL
N=C(N)NCCC[C@H](NC(=O)CCCCCNC(=O)[C@H](CCCNC(=N)N)NC(=O)[C@H](CCCNC(=N)N)NC(=O)CCCCCNC(=O)[C@H](CCCNC(=N)N)NC(=O)[C@H](CCCNC(=N)N)NC(=O)CCCCCNC(=O)[C@H](CCCNC(=N)N)NC(=O)[C@H](CCCNC(=N)N)NC(=O)CCCCCNC(=O)[C@@H](N)CCCNC(=N)N)C(=O)NCCCCCC(=O)NCCC(=O)O	Escherichia coli	broth microdilution	ATCC 25922, Mueller-Hinton broth	together with: LPS O55:B5 1 mg/mL		MIC	> 192 µM
CC(=O)N1CCN(c2ccc(OCC3COC(Cn4ccnc4)(c4ccc(Cl)cc4Cl)O3)cc2)CC1 (stereo not drawn)	Candida albicans		alveolar fluid clinical isolate	48 h, 30 °C		MIC	> 64 µM
CC1(C)SC2C(NC(=O)C(NC(=O)C3=C(O)C(Cc4ccsc4)NC3=O)c3ccccc3)C(=O)N2C1C(=O)O (stereo not drawn)	Escherichia coli	broth microdilution	Keio mutant JW0146-2	18 h, ferric hydroxamate uptake gene		MIC	12.5 µg/mL

Some of these lines once more:
SMILES	tested on	test	test system	setting	how to read	quantity	value
CC[C@H](C)[C@@H]1NC(=O)[C@@H]2CCCN2C(=O)[C@H](CC(C)C)NC(=O)[C@H](CC(C)C)NC(=O)CNC(=O)[C@@H](NC(=O)[C@@H](NC(=O)[C@H](CC(=O)O)NC(=O)CNC(=O)[C@@H](NC(=O)[C@H](C)NC(=O)CNC(=O)[C@H](CCCCN)NC(=O)[C@H](CC(C)C)NC(=O)[C@H](CC(C)C)NC(=O)[C@H](CCCCN)NC(=O)CNC(=O)[C@@H](NC(=O)[C@@H](N)CC(C)C)C(C)C)C(C)C)C(C)C)CSSC[C@@H](C(=O)O)NC1=O		RNA-seq, item: Rbm38	mouse, traumatic brain injury model, frontal cortex and hippocampus	dose not given	reference: TBI alone	log2 fold change	-1.53
N=C(N)NCCC[C@H](NC(=O)[C@H](Cc1c[nH]c2ccccc12)NC(=O)[C@H](CCCNC(=N)N)NC(=O)[C@H](Cc1c[nH]c2ccccc12)NC(=O)[C@H](Cc1c[nH]c2ccccc12)NC(=O)[C@H](Cc1c[nH]c2ccccc12)NC(=O)[C@H](CCCNC(=N)N)NC(=O)[C@H](Cc1c[nH]c2ccccc12)NC(=O)[C@@H](N)CCCNC(=N)N)C(=O)N[C@@H](Cc1ccccc1)C(N)=O	Candida albicans	broth microdilution	CGMCC 2.209, RPMI 1640-MOPS	48 h, 30 °C, together with: KCl 4.5 mM		MIC	16 µM
